Assay results of several laboratories.
“And” joins repeats or separate records; there may be more than shown. ± gives the spread as reported. Ends that are not written are not given here.
B1: Urtica dioica agglutinin; sequence looked up; chain QRCGSQGGGGTCPALWCCSIWGWCGDSEPYCGRTCENKCWSGERSDHRCGAAVGNPPCGQDRCCSVHGWCGGGNDYCSGSKCQYRCSSSVRGPRVALSGNSTANSIGNVVVTEPLFDQMFSHRKDCPSQGFYSYHSFLVAAESFPAFGTIGDVATRKREVAAFLAHISQATSGERSDVENPHAWGLCHINTTTVTENDFCTSSDWPCAAGKKYSPRGPIQLTHNFNYGLAGQAIGEDLIQNPDLVEKDPIISFKTALWFWMSQHDNKPSCHDIVLNANSAANRIPNKGVIGNIISRAFGHDDFAVRSSSIGFYKRYCDMLGVSYGHDLKYWFDNTPSSEFQRIQMRVAA
B2: disulfide; chain VCSCRLVFCRRTELRVGNCLIGGVSFTYCCTRV (disulfide (positions not given here))

Molecule | tested on | test | system | setting | scale | quantity | value
Polymyxin B | Pseudomonas aeruginosa | broth microdilution, MH medium | KCCM 11328 | 16 h, 37 °C, growth inhibition over 99% |  | MIC | 1 µM
B1 (Urtica dioica agglutinin) | feline infectious peritonitis virus | viral replication | CRFK |  |  | EC50 | 1.8 µg/mL
ILPWEWPWWPWRR | Escherichia coli |  | peptide, K-12 MG1655, Mueller-Hinton broth | concentration not given, 37 °C, unit not given | reference: no peptide | growth rate | 0.647
Polymyxin B | Klebsiella pneumoniae | broth microdilution | KPC-180 producing |  |  | MIC | 16 µg/mL
pertussis toxin |  | open field test | humanized mice, subarachnoid haemorrhage | dose not given |  | distance travelled | 32 m and 16 m
GWTLNSAGYLLGPHAVDNHRSFNDKHGFT-NH2 (C-amide) |  |  | peptide, mouse, DSS-induced colitis | ip, 1.5 µM |  | colon length | 6 cm and 6.2 cm
DPDPE |  | RP-HPLC | HALO C18 column | 25 µM, formic acid/acetonitrile, 25 min gradient |  | retention time | 6.59 min
KKRRRGLSRFRMGRGY | Micrococcus luteus | bacterial survival, plate count | peptide | 20 µM, 4 h, room temperature | reference: untreated control | bacterial killing | 100%
KKGLGGKLLACKG | Candida albicans | growth | peptide, ATCC 10231, potato dextrose broth | 128 µM, 30 °C |  | inhibition | 0 fraction (0-1)
tunicamycin | Staphylococcus aureus | broth microdilution, EUCAST | ATCC 29213 | 18 to 24 h, 37 °C |  | MIC | > 64 µg/mL
bleomycin sulfate | human coronavirus OC43 | viral replication | MRC-5 | over 10 dose points |  | maximum inhibition | 0%
ILSAAWSGITSLF | Escherichia coli | bacterial growth, OD600 growth curve | peptide, K12 MG1655, MHB broth | 40 µM, 24 h, 37 °C | reference: no peptide control | relative growth rate | 0.583
nonaarginine | PorA peptide pore | peptide binding, planar bilayer single-channel recording |  | 0.5 µM, pH 7.4, -20 mV, cis side, 150 mM KCl |  | kon | 1.45e+07 ± 1.5e+06 M⁻¹ s⁻¹
ILSAIWSGITSLI | Escherichia coli | bacterial growth, OD600 growth curve | peptide, K12 MG1655, MHB broth | 40 µM, 24 h, 37 °C | reference: no peptide control | relative growth rate | 0.534
RRYKKREYKNIG | Streptococcus iniae | bacterial survival, plate count | peptide | 20 µM, 4 h, room temperature | reference: untreated control | bacterial killing | 27%
colistin | Aspergillus fumigatus |  | solid minimal medium | 100 µM, 4 d | reference: untreated control | radial growth ratio | 0.796 and 0.778
ILSAAWSGIKSLF | Escherichia coli | bacterial growth, OD600 growth curve | peptide, K12 MG1655, MHB broth | 40 µM, 24 h, 37 °C | reference: no peptide control | relative growth rate | 0.514
B2 | Acinetobacter baumannii | crystal violet staining | 19606 | concentration not given |  | biofilm formation | 84.7% and 96.2% and 119% and 120% and 110% and 83.7% and 87% and 69.1%
VRRRRVSRFGRGRGY | Streptococcus iniae | bacterial survival, plate count | peptide | 20 µM, 4 h, room temperature | reference: untreated control | bacterial killing | 61.3%
capreomycin sulfate |  |  | guinea pig, serum | insufflation, dose not given, dry powder combination single dose |  | Cmax | 2690 ng/mL
Teicoplanin A2-2 | Streptococcus pneumoniae |  | penicillin-intermediate |  |  | MIC | 0.12 µg/mL
Ac-LRKLRKRLLRDWLKAFYDKVAEKLKEAF-NH2 (N-acetyl, C-amide) | THP-1 derived macrophages |  | peptide | concentration not given, 2 h pulse, 60 min chase, surface peptide removed by heparin |  | peptide retained in cells | 40 ± 2.3%
glucagon |  | arteriovenous isotope dilution | human, type 1 diabetes | iv, dose not given, overnight fasted, baseline |  | leg extraction | 27 ± 4.2%
Avermectin B1 | Drosophila melanogaster | food ingestion, fluorescein feeding | first instar larvae | 40 µg/mL | reference: solvent-treated | relative fluorescence | -61.6%

Molecule | tested on | test | system | setting | scale | quantity | value
Polymyxin B | Klebsiella pneumoniae | DCFH-DA fluorescence | ATCC 700603 | 1 × MIC | higher = more ROS | ROS level | 262 a.u.
KRRRRGLPRLGMVTGY | Streptococcus iniae | bacterial survival, plate count | peptide | 20 µM, 4 h, room temperature | reference: untreated control | bacterial killing | 44.5%
RNA 1 AACAAAACAAAAUAGCACCGUAAAGC / RNA 2 GCUUUACGGUGCUA (dsRNA; 14 bp duplex, 5' 12 nt overhang) | DEAD-box ATP-dependent RNA helicase RhpA 1-392 (Pseudomonas aeruginosa, UniProt Q9HX66) | fluorescence polarization | double-stranded RNA | together with: AMP-PNP 1 mM |  | Kd | 84 nM
caspofungin | Aspergillus fumigatus |  | mito::GFP | concentration not given, 15 min, germlings |  | mitochondrial fragmentation | 36.7% and 38.5%
amyloid β-peptide (1–28) |  | substrate, LC-MS | phosphate buffer | 10 µM, 8 h, pH 7.4, 25 °C, together with: MINP(β1–14) 1 equiv |  | remaining substrate | 28.7 ± 3.1%
RWRYRRRGYLAMG | Streptococcus iniae | bacterial survival, plate count | peptide | 20 µM, 4 h, room temperature | reference: untreated control | bacterial killing | 26.6%
ILPWFWPWWPWRR | Escherichia coli |  | peptide, K-12 MG1655, Mueller-Hinton broth | concentration not given, 37 °C, unit not given | reference: no peptide | growth rate | 0.364
RSKRGNRYQRL | Streptococcus iniae | bacterial survival, plate count | peptide | 20 µM, 4 h, room temperature | reference: untreated control | bacterial killing | 70.4%
HNP1 R15A | Acinetobacter baumannii | crystal violet staining | 19606 | concentration not given |  | biofilm formation | 366% and 290% and 329%
hexaarginine | PorA peptide pore | peptide binding, planar bilayer single-channel recording |  | 0.5 µM, pH 7.4, -5 mV, cis side, 150 mM KCl |  | kon | 3.5e+07 ± 4e+06 M⁻¹ s⁻¹
insulin human |  | item: TGM5 mRNA | EcoHIV-infected mouse, brain | i.p., dose not given | reference: PBS | fold change | 1.41
thiostrepton | Streptococcus pneumoniae |  | penicillin-intermediate |  |  | MIC | ≤ 0.001 µg/mL
Polymyxin B | Escherichia coli | broth microdilution | E23 clinical isolate | 20 h |  | MIC | 1 µg/mL
KLGKGGGLLKKLK | Candida albicans | growth | peptide, ATCC 10231, potato dextrose broth | 128 µM, 30 °C |  | inhibition | 0 fraction (0-1)
heparin sodium |  |  | healthy Chinese adult volunteers | continuous intravenous infusion, 8 IU/kg/h, 5 days |  | administration site extravasation | 0%
RKYKKRGYQAVQ | Streptococcus iniae | bacterial survival, plate count | peptide | 20 µM, 4 h, room temperature | reference: untreated control | bacterial killing | 54.2%
GLCGKGGKCCCGC | Candida albicans | growth | peptide, ATCC 10231, potato dextrose broth | 128 µM, 30 °C |  | inhibition | 0 fraction (0-1)
ILPWGWPWWPWRR | Escherichia coli |  | peptide, K-12 MG1655, Mueller-Hinton broth | concentration not given, 37 °C, unit not given | reference: no peptide | growth rate | 0.556
gabaculine | Toxoplasma gondii | parasite growth, fluorescence | HFF, RH type I YFP | 72 h |  | IC50 | > 1000 nM
vancomycin | Enterococcus faecalis | bacterial growth |  |  |  | IC50 | 800 ± 100 nM
ILSAAWSGITSLV | Escherichia coli | bacterial growth, OD600 growth curve | peptide, K12 MG1655, MHB broth | 40 µM, 24 h, 37 °C | reference: no peptide control | relative growth rate | 0.134
aspterric acid | Arabidopsis thaliana |  |  | foliar spray, 200 µg/mL, 20 days |  | fresh weight inhibition | 56.3% and 56.6% and 55%
melittin | Staphylococcus aureus | decreased | MRSA NCTC 12493 | 1 µM or above |  | intracellular ATP level | decreased

Repeated from above:
Molecule | tested on | test | system | setting | scale | quantity | value
RWRYRRRGYLAMG | Streptococcus iniae | bacterial survival, plate count | peptide | 20 µM, 4 h, room temperature | reference: untreated control | bacterial killing | 26.6%
B1 (Urtica dioica agglutinin) | feline infectious peritonitis virus | viral replication | CRFK |  |  | EC50 | 1.8 µg/mL
vancomycin | Enterococcus faecalis | bacterial growth |  |  |  | IC50 | 800 ± 100 nM
ILPWGWPWWPWRR | Escherichia coli |  | peptide, K-12 MG1655, Mueller-Hinton broth | concentration not given, 37 °C, unit not given | reference: no peptide | growth rate | 0.556
